Measurements of several laboratories.
Parts stem from different laboratories: compare values within a part only. Several values in a cell are separate wells, animals, samples, runs or records.
UniProt Q9UQM7, sequence (whole entry, looked up): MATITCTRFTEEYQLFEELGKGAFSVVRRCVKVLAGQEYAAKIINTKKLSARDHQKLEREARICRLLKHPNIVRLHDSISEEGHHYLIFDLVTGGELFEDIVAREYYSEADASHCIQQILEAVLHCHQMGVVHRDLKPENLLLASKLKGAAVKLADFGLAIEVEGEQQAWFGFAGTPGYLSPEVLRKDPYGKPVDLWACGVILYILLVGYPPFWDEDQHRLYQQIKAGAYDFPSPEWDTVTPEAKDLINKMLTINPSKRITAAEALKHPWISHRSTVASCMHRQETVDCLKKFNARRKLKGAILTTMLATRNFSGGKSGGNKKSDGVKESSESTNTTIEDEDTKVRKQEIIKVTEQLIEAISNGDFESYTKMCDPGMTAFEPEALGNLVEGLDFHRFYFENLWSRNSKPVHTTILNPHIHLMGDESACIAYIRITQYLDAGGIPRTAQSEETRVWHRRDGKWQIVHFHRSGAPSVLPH

Sample 1
Target: Muscarinic acetylcholine receptor M1 (CHRM1, Homo sapiens, UniProt P11229)
UniProt P11229, sequence (whole entry, looked up): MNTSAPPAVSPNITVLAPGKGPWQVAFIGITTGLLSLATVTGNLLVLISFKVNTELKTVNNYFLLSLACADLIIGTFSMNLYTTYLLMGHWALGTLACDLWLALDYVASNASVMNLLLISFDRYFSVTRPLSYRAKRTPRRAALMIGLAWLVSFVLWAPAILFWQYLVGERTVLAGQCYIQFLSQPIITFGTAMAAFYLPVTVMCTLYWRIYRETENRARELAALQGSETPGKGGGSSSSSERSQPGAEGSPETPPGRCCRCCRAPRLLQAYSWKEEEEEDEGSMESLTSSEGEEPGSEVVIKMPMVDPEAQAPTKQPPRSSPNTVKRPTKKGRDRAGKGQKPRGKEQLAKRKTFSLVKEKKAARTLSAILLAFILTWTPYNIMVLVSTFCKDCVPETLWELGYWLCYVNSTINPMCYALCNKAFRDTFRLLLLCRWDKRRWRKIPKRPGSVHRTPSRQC
Effect on: ligand displacement
Concentration: 10 µM
Endpoint: inhibition
C[C@@H](c1cccc(C#N)c1)n1cc(Cl)cc(C(N)=O)c1=N: 14.9%
c1ccc(C2CCN(c3cnc4c(N5CCOCC5)nccn34)CC2)cc1: 23.7%
CCc1ccccc1C(=O)Nc1n[nH]c2c(C)c(F)c(C3C(C#N)=C(C)N(C)C(C)=C3C#N)cc12: 2.81%
O=C(Nc1ccc(Oc2ccc(F)cc2)cc1)N1CCc2ncccc2[C@H]1c1ccc(F)cc1: -2.98%
Nc1nc(NCc2ccccc2)nc(-c2cccc(CO)c2)n1: 10.8%
C[C@@H]1CN(c2cc(-c3n[nH]c4ccc(OC5(C)CC5)cc34)ncn2)C[C@H](C)O1: 3.04%

Sample 2
Target: Leukocyte tyrosine kinase receptor (LTK, Homo sapiens, UniProt P29376)
UniProt P29376, sequence (whole entry, looked up): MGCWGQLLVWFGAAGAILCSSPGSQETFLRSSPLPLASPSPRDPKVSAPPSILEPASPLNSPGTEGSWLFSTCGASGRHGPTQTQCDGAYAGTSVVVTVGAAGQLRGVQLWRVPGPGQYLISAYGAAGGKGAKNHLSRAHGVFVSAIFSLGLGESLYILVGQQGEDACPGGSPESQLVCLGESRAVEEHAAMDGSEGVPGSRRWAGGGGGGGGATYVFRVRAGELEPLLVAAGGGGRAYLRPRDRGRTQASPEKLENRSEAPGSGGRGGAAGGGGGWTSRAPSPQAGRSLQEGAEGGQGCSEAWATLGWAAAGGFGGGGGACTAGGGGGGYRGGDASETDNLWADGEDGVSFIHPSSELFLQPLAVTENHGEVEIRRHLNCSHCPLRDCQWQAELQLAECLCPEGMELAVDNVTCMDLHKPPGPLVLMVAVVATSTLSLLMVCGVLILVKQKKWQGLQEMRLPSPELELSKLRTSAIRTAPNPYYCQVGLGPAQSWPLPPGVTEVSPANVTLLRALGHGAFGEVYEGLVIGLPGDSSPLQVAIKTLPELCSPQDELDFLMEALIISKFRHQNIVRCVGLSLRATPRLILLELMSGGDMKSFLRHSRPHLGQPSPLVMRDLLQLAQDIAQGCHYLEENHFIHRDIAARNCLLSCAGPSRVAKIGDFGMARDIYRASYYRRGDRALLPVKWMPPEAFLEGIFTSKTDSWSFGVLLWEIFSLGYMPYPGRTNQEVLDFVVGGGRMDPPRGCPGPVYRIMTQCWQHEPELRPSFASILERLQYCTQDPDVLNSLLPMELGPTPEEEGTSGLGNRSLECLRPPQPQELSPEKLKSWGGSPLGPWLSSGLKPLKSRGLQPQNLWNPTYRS
Effect on: enzyme activity
Action: inhibitor
Technique: radiometric
Concentration: 0.5 µM
Endpoint: remaining activity
COc1cc2ncnc(Nc3ccc(OCc4ccccc4)cc3)c2cc1OC: 98.6%
O=C1NC(=O)/C(=C/c2ccc3nccnc3c2)S1: 94.7%
COc1ccc(Cl)cc1NC(=O)Nc1cc(C)nc2ccccc12: 87.3%
Cn1cnc2cc3c(Nc4cccc(Br)c4)ncnc3cc21: 77.9%
CCC(=O)Nc1ccc2ncnc(Nc3cccc(Br)c3)c2c1: 81%
CO[C@H]1[C@@H](OC)C[C@H](C)[C@@H](OC)C2=CC(=O)C=C(NC(=O)/C(C)=C/C=C\[C@H](OC)[C@@H](OC(N)=O)/C(C)=C/[C@@H]1C)C2=O: 98.5%

Sample 3
Compound: CC(C)S(=O)(=O)c1ccc2nccc(Nc3ccc4sc(C5CCCC5)nc4c3)c2c1.Cl
Endpoint: viability
L929 RIPK3 knockout; 3.125 µM, with: zVAD: 102% and 105% and 103%
L929; CCK-8; 12.5 µM: 113% and 112% and 110%
L929; CCK-8; 3.125 µM: 101% and 97.7% and 100% and 103% and 102%
L929; CCK-8; 25 µM: 88.4% and 92.1% and 90.7% and 84.4%
L929 RIPK3 knockout; 1.563 µM, with: zVAD: 100% and 103% and 98.9% and 101%
L929; CCK-8; 12.5 µM, with: zVAD: 107% and 112% and 111%
L929 RIPK3 knockout; 50 µM: 58.9% and 62.4% and 61.1% and 64% and 62.7%
L929 RIPK3 knockout; 12.5 µM, with: zVAD: 103% and 100% and 105% and 102%
L929 RIPK3 knockout; 3.125 µM: 97.5% and 104% and 97.3% and 96%

Further values, each from its own experiment
COC(=O)C1=CO[C@@H](C)[C@H]2CN3CC[C@]4(C(=O)Nc5ccccc54)[C@@H]3C[C@H]12  inhibition (Calcium/calmodulin-dependent protein kinase type II subunit alpha (CAMK2A, Homo sapiens, UniProt Q9UQM7); enzyme activity, inhibitor; 10 µM): 12%
